Experimental data from different studies.
Each numbered part is a random draw from the data of one study; scales do not carry over between parts. Substitutions count along the parent as printed.

Sample 1
Target: Histone acetyltransferase KAT6A, winged helix 2, GST fusion (KAT6A, Homo sapiens, UniProt Q92794, residues 85-181)
Method: protein binding microarray
Molecule type: double-stranded DNA, one strand shown
Sample: in vitro
Tested at: not given
Setting: 8-mer, flanks averaged, mean of 2 arrays, mostly near background
Relative to: not given
Direction: higher = stronger binding
Quantity: E-score
Residues (chain): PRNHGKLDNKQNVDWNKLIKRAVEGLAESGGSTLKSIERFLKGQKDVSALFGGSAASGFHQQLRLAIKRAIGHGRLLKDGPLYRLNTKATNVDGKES
GCCTCGCC: 0.208
GAGTGGCA: -0.00613
CACTCGTA: -0.0563
ATTACTCC: -0.0455
CGACGACC: 0.106
AAATGTCG: 0.0328
CCCTCAGG: -0.0277
GATTGTCA: -0.0347
AGAATCCC: 0.119
CCCTGCGA: 0.204
GATGTCTA: 0.0357
CTACAGGC: -0.108
CACACGTC: -0.18
GGACTGCA: -0.0657
AAGATTAC: -0.0402
AGCGATCC: -0.0772
CAAAGCAG: 0.272
GCAGACTA: 0.0543
CCAGGCGA: 0.166
AGCAATAA: -5e-05
AGAAGCGA: 0.0479
ACGGCGCC: 0.192
AAAATCTC: -0.196
ATTCTCAG: 0.0283
AGGGGCTC: 0.0254

Sample 2
Target: PABPC1L2, full length, GST fusion (mouse, UniProt A0ABA7IW68)
Method: RNAcompete
Molecule type: RNA
Sample: in vitro
Tested at: 20 nM
Setting: 7-mer, probes averaged, single round
Relative to: mean of 7-mers
Direction: higher = stronger binding
Quantity: 7-mer Z-score
Construct (chain): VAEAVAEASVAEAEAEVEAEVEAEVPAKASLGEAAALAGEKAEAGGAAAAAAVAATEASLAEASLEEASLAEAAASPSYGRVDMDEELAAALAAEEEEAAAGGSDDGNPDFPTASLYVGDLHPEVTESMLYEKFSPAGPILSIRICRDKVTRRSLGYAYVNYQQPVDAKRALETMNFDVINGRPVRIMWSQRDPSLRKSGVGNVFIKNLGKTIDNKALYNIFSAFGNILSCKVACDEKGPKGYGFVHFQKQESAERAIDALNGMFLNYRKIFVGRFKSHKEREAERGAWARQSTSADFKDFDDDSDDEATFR
GCCUGUU: -0.365
CGGAUUU: -0.0264
UGUUCUU: -0.42
GUGAGGC: -0.15
AGUAGCG: -0.13
UGUACGC: -0.206
GCUUUUC: -0.318
CAGUCAG: -0.209
GUCCAUG: -0.264
GCGUAUG: -0.316
UUAAGUG: 0.00436
AGAAAUA: 2.73
ACACCUC: -0.126
ACACAGA: 0.213
UACUGUG: -0.117
AAAGGUG: 1.06
CGCCCUU: -0.441
UGGAGGA: 0.238
GUUCAUA: -0.287
AGAUUAC: -0.238
CCAGUGG: -0.153
AACAGCU: 0.459
GGACCAG: 0.26
UGGCAGG: 0.0932
CUAUGCA: -0.101

Sample 3
Target: RING finger protein unkempt homolog, zinc fingers 1-6, SBP tag (UNK, Homo sapiens, UniProt Q9C0B0, residues 30-357)
Chain of UniProt Q9C0B0 (30-357, looked up): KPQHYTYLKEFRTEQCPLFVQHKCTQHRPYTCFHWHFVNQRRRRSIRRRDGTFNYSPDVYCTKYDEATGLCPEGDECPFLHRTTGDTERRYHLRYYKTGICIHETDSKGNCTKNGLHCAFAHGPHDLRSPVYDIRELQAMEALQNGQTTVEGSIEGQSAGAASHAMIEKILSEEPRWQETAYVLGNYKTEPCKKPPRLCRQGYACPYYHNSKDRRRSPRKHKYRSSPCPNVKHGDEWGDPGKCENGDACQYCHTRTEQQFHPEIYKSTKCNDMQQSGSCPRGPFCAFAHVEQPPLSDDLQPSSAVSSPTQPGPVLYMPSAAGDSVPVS
Method: RNA Bind-n-Seq
Molecule type: RNA
Sample: in vitro
Tested at: 100 nM
Setting: RNA with constant flanks, vertebrate orthologous sites, ends assumed
Relative to: input RNA pool
Direction: higher = stronger binding
Quantity: bound/input enrichment
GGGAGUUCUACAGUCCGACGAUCCUUUUUAUUGAUCAGGUCUGUAAAUGUGUACUAAAAAAAUCAGAGUCUAUUUAUAAACAAUAGUUUAUUUAAAGAGGUCUUUCCUCAUCGAUAUUGUGGUAUGCAUAAUUCUUUUUGUUACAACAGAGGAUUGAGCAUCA: 0.179 ratio
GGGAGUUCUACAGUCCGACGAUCAUCUGACUGCUGGAUGAAGACUGUUCCAAGUUAUAACCAAACAAAUAGCUCCAUGGACUUUAGAAAUUAUAUGAUGAGAGAUGAGAAUCUAGAGCCACUGCCCAAAAACUGGGAGAUGGCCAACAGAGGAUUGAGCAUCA: 0.72 ratio
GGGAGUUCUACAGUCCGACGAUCUGCUCGCCUUAGAGCAGUUCCCCCCACCCACCCACCCCUUUUUUUCCUUCAUUUUGGUUUCAGGGCUGGGUGGGUUGUGGCACACACCUCUGAGGCCAGAGCUGUCUGGUUCACCUUGUGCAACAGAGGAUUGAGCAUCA: 0.181 ratio
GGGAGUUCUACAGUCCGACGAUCAGCAAUUAGGGUGGGCCAUUCCUCUACAUUUCCCACGAGGAGAAAAGCCCAAAUAGAUGACACAUAUUUCACACAUCUGAUAAUACUACUCUCUUUUUGUUUUCUGUUUUUACGUAUGCGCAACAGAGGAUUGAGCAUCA: 0.688 ratio
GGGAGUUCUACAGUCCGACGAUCACUUUAGUUCUUAACAACCAACACUCCUAAAUGAGUUAGAAAAAAGUUUACAACAUAAUCUAGUUUACAAAGAAGUCUUGUGCUAGAAUACUUUUUACAAAGUAUUUUUGAAUACCAUUACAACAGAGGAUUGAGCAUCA: 0.624 ratio
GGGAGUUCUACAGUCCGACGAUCGGAAAGUUACAGAUCAGACAGUGAAAGUAGGAGCACAGGAUCCUGGUUGUCAUCCUCUUUGAGGAACAGAUGUACACCUCUCUUUUCCAGAAGAAGAAGAGAAGGAAGAGAUGAAUCUGCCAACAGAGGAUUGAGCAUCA: 0.389 ratio
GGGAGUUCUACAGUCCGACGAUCUAUUUUCUUAUUUUAGGUAUCAUUGCCCAGUGCCUAAGAUCUUUUAUGUUCAGCUCACUGUAGGAAAUAAUGAAUUUUUGGGGGAAGGAAAGACUCGACAAGCUGCUAGACACAAUGCUGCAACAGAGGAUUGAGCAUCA: 1.13 ratio
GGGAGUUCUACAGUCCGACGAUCAGUAUCUCAGUUGUACCGUGUUGGGUUGGCAUUGUACAGAAAUUAACAGCCAUAUUGGUCUAGAAACGUUAAACAUAAUUUUUUCCAUUUGUACAGGGGUAACGCACUGUAUUAAAUAUGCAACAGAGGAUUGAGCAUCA: 1.3 ratio
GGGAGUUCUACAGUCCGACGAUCGAUGUUGAUUUCUAUUUAUGUUGGAUUCAUUUUCUGUUAUGGUUUUAAUUUGCUAUACCAAAAUGGUGUUCGUAAAAAUUGACCUGUAAUGGGAGUUGCUAUAGUGAAAUGCAAUAUGUUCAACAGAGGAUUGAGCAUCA: 0.279 ratio
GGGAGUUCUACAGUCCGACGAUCGGACUGGGGGGUGGUGGGUGGGAAGAAGAUGUAUGUAUGUUAUUGGCAUUUUUAAGUGUUCAGAGGUGGGUUUUUUUUCCCCCCUUUCUGUUUUGUUUUUUUUUUUCCCUUCAAUUGAAUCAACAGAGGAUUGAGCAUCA: 0.424 ratio
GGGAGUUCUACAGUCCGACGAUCGAAGAUGGUGGUUGUACAUUAUUCAUUUAGAAAAUACAAAACUUCGUUUUGUUUUGAAGCUAGGUAUUAAUUGGAAUAGCUAUUAUACCUGAGAGUGGAGCAGCUGUGCCCUUCCUUUGACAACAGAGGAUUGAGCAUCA: 1.04 ratio

Sample 4
Target: ABI1, truncated, D143A, DHFR fusion (Arabidopsis thaliana)
Method: DHFR PCA, deep sequencing
Sample: yeast
Setting: methotrexate growth selection, single substitutions
Added: (+)-ABA 0.39 µM
Relative to: wild-type fitted maximum
Direction: higher = stronger binding
Quantity: relative binding score
Parent: PYL1, truncated, DHFR fusion (Arabidopsis thaliana); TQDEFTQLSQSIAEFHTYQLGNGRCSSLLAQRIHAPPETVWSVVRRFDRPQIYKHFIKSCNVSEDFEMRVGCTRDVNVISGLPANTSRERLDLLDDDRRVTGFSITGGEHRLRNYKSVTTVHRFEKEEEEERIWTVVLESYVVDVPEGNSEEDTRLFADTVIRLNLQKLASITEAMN
T101S: 3.49%
L29D: -1.26%
F5Y: 40.1%
D144L: -28.6%
H34Q: 45.3%
S42D: 32.3%
H110G: 23.1%
S27V: 1.03%
E14N: 4.74%
L169G: -9.72%
F157D: -5.71%
I33L: -4.72%
K116W: -3.68%
V44P: -7.61%

Sample 5
Target: RNA binding protein fox-1 homolog 2, RRM domain, GST-SBP tag (RBFOX2, Homo sapiens, UniProt O43251-10, residues 100-194)
Method: RNA Bind-n-Seq
Molecule type: RNA
Sample: in vitro
Tested at: 365 nM
Setting: natural RNA segment, single round, ends assumed
Relative to: no-protein control
Direction: higher = stronger binding
Quantity: RBNS enrichment (R)
Construct (chain): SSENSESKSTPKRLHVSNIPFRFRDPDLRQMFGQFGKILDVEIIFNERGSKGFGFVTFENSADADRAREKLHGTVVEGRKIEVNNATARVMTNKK
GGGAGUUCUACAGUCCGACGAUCCUCCUGGCAUGAAAAUAAAACAAAGGUUUUCGUUGUUGUUGUUCCAUUGCCCAUUUCCCCCAUGUUGUCUUUCCCUUGGCUGAUGCCUCCUCUGGGUCACAUUGCUUCUUUGGAAUUCUCGGGUGCCAA: 0.896
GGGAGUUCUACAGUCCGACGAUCAUGAUUUGGGGGAGGCUUUGGGAGCAAAAUAAGGAAGAGGGCUGAGCUGAGCUUCGGUUCUCCAGAAUGUAAGAAAACAAAAUCUAAAACAAAAUCUGAACUCUCAAAAGUGGAAUUCUCGGGUGCCAA: 0.423
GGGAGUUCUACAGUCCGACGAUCGCACUGGCAGUUGGUGGCAGUGAGACCAGCCCACCCACCACCACCCACCACAGAAAAGCACAAACCUCUGGGAAAGACAACGUCUCUCGGGGGCCAGGGGUCAUCGGUUUUGGAAUUCUCGGGUGCCAA: 0.54
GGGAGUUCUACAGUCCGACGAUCAUAGCUUUUCACCAUGUGGUGUUUACCAGCUGUUACUCUGUAUUUUAAAAAGCCAGAGAUUUCUUCUGUCUAAACUGUUUCUAUAGCAUUUUCUAAACAAAAAAAAUGGUUGGAAUUCUCGGGUGCCAA: 1.74
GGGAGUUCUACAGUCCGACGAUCUAUUAACAGCUUAAUUUUUCUCUUUUACUCCAUAGGAACUUAUUUUAAUAGUAACAUUAACAACAAGAAUACUAAGACUGUUUGGGAAUUUUAAAAAGCUACUAGUGAGAUGGAAUUCUCGGGUGCCAA: 0.379
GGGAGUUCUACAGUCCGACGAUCACGGAUGUUGUCAGGAAUCAUGAUCUGACUUUAAUUGUGUGUCUUCUAUUAUAACUGCAUAGUAAUAGGGCCCUUAGCUCUCCCGUAGUCAGCGCAGUUUAGCAGUUAAAUGGAAUUCUCGGGUGCCAA: 0.572
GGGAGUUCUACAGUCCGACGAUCACCCUCUGGCUGCCUAGAUCAGUAAAUAAAAUUGAUGUAAUAUAAUUUAUAAGUAACACUGUUGAAACCCUGAUCCCAGUGGAGGCUGUAACCCACCUGCCCCCGCACCAUGGAAUUCUCGGGUGCCAA: 0.451
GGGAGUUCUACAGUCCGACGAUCAGCGAUCAUUUUAUUUUAUUUUAUUACUUUUGUUUUUAAUUUUAACCAUAGUGCACAUAUUCCAGGAAAGUGUCUUUAAAAACAAAAACAAACCCUGAAAUGUAUAUUUGUGGAAUUCUCGGGUGCCAA: 0.936
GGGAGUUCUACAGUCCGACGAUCACAGAAAGCCUCAGCUACCUCAGCAUUUUGUUGAUGCUUAUUUAGAUGAGAUGGAUCAAGGUAAAAAUGACCCAUCAUCUACUUUCUCCAAAGAAAACCUAAUUUUCUCAUGGAAUUCUCGGGUGCCAA: 0.342
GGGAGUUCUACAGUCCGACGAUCUUCUCUGAAAGCUUAGCCUCAAGGGAACACCUAAAGAGCUCCCCUACAUAGACUCCUGCCUCCAGGUGCAGGAACACACCUUCCUAAAGUGCUGUGGGAGGCCAAACUGGUGGAAUUCUCGGGUGCCAA: 0.342
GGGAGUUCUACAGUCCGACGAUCGUAGACUCACAAGUUUAACUGUUGUAUUAUAACAGUAUUACAUGUCAACAGUGUGGUUAUGACCUUUAUUUAUAUAAAAACCAAAUAUUUAGUCAAUUUACCGUGUCUUAUGGAAUUCUCGGGUGCCAA: 0.634
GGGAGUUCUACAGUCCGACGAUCACAAGAACCUUUGCUUUCCUUAGACUUGUUCUGCAUUUUAUUUUUUAUUUCUCACCAAAAUAAAAGCAUUUAUGAGAAUUAUAAGUAAAGCUUUCUGUAUUUCAGAGAGAUGGAAUUCUCGGGUGCCAA: 0.413
